Assay results pooled from the literature.
Each numbered part is a random draw from the data of one study; scales do not carry over between parts.

Study 1
Target: Histone acetyltransferase KAT6A, both winged helices, GST fusion (KAT6A, Homo sapiens, UniProt Q92794, residues 1-181)
Method: protein binding microarray
Molecule type: double-stranded DNA, one strand shown
Sample: in vitro
Tested at: not given
Setting: 8-mer, flanks averaged, mean of 2 arrays, mostly near background
Relative to: not given
Direction: higher = stronger binding
Residues (chain): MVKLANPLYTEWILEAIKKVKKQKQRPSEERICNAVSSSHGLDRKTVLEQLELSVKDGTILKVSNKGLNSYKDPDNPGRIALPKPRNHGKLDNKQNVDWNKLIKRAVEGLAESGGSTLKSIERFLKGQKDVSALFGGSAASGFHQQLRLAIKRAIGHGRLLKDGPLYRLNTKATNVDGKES
| Strand | E-score |
| --- | --- |
| ATTGTATG | -0.17 |
| GGCCCGGA | 0.0936 |
| CTCTAAGC | 0.025 |
| ATGCAAAC | -0.0691 |
| CTATGTGC | -0.0222 |
| ACGCGTTA | 0.274 |
| AATTTCTC | -0.00613 |
| AGCTGCCC | 0.00873 |
| CGATTCTA | -0.0288 |
| CAGTGTAA | -0.114 |
| TAGCTTAA | -0.0615 |
| TAGGCAGA | -0.0707 |
| AAACAATA | 0.03 |
| ATCTGACA | -0.175 |

Study 2
Target: RING finger protein unkempt homolog, zinc fingers 1-6, GST-SBP tag (UNK, Homo sapiens, UniProt Q9C0B0, residues 30-357)
Method: RNA Bind-n-Seq
Molecule type: RNA
Sample: in vitro
Tested at: not given
Setting: RNA with constant flanks, human and mouse sites, ends assumed
Relative to: input RNA pool
Direction: higher = stronger binding
Residues (chain): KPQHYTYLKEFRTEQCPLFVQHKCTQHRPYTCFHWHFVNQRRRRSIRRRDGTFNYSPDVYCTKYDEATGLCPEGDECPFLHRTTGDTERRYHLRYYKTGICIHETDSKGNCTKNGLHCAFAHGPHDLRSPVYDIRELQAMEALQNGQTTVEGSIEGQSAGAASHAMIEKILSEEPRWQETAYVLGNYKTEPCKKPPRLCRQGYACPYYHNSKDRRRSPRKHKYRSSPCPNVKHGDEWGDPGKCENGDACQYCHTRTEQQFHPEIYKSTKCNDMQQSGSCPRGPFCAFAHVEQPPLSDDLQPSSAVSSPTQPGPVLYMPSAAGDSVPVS
| Strand | bound/input enrichment [ratio] |
| --- | --- |
| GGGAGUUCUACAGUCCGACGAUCCGUGCACUGGGUUAAAAACGACAACGAGCACCAACCAUGAAAGAUCCAAGUCGCAGCAGUACUAGCCCAAGCAUCAUCAAUGACGAUGUGAUUAUUAACGGUCAUUCUCAUGAAGAGGAUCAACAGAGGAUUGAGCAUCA | 0.126 |
| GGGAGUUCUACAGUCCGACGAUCCAGGCUUACGCUCCAGAAGAGGCAGCCCAAGAGGAGGAAUCAGUUCUCUGGACGAUAUUGAUUAGCAUUUUGAAACUGGUGCUUGAAAUUCUCUUCUGAUCCCUUGAAUAUGCUGGAGCACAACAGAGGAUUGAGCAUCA | 10.6 |
| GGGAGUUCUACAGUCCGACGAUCACUAUCUGAAGAUUUCCAUUUGUCAAAAAGUAAUGAUUUCUUGAUAAUUGUGUAGUAAUGUUUUUUAGAACCCAGCAGUUACCUUAAAGCUGAAUUUAUAUUUAGUAACUUCUGUGUUAACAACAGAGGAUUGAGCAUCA | 2.58 |
| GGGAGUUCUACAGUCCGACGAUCUUGGUGAAGUGUUUCACAUUGAUCAUCCAGAGUCUACAACGUGGUGAUAUACAGCCAUGGCUCCAUAGUGGAAGUAACAGUUUACUAAGUAAGCUCAUUCAUCAGUCUUAUCAUGGAACCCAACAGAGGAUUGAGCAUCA | 0.242 |
| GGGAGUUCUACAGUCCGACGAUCAGCCUGUGCCCUUUUGCCUUCUGGGCCCGUAUAUGGGUCUUUGCUUGACCAAAGAGGAUCACAUGUUACUCCUUUCUGCACGGCCUUUAUCCUGCGGGCUCCCAGGGCAGGGACCUGAGCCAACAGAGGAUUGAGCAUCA | 0.116 |
| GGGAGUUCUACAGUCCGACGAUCUGUGGUGGAGAAGGUAUCUCAUUCCUCUCCAACAUCAUCUCCACUUUGCAUCUGUCUCUCUUAGUCUGCUUUUUUUCCACCGAUGUAACAGACCUGCAGCCAGCAAGACUCCGAGGGAAGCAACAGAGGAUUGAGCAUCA | 0.179 |
| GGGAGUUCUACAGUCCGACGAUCUUUCUAUUGCAGCAGACCAUGCUACGAGUGAAGGAUCCUAAGAAGUCACUGGAUUUUUAUACUAGAGUUCUUGGAAUGACGCUAAUCCAAAAAUGUGAUUUUCCCAUUAUGAAGUUUUCACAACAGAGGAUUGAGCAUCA | 0.101 |
| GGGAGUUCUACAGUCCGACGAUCGAGUCCGCUGCCCCGGCCCUCCAGGGCCGCCUCCUCUGUUUGCUUUGCAGAGGAGGGAACUGCUCCUUCGACUCUGCAGCUCAGGCCUGUCCCCGACACAGCCCCCAGGGAGUCUUCUAGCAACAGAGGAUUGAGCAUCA | 0.137 |
| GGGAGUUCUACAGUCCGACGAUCGAAGACCAAAUCGUGUCCAAGGCAGCGUACGUGCUCUUCUACCAGAGACAGGACACUUUCAGUGGGACUGGCUUCUUCCCUCUUGACCGAGAAACUAAAGGUGCUUCAGCUGCCACAGGUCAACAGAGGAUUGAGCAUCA | 0.0541 |
| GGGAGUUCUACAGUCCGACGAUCAUGCACCUGAAGAAACCUGGGGGCUUUGACAUAUCCUUGUUCUACAGAGAUAUCAUCAGCAUAGCAGAGGAUGAGGACCUCAGGGUUCACUUUGAGGAAUCCAGCAAGCUAGAAGACCUGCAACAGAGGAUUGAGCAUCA | 0.181 |
| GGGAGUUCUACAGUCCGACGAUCAAUUUUAACCAAGAAUCUGAAGGUAGAAAUACAGGACCAUGGUUAUCUUCCUCACUUAGAAAUAGAUGCACACCUUUGUUCUCUAGAAGGAGGCGAGAGGGAAGAGAUGAAUCUUCAAGGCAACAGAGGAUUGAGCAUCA | 4.63 |

Study 3
Target: Interferon regulatory factor 7, full length, phosphomimetic (IRF7, Homo sapiens, UniProt Q92985, residues 1-503, S101K/S471D/S472D/S475D/S476D/S477D/S483D/S484D/S487D)
Method: protein-binding microarray
Molecule type: double-stranded DNA, one strand shown
Sample: in vitro
Tested at: 250 nM
Setting: 60-bp whole probe
With: salmon DNA 0.4 mg/ml
Relative to: random background probes
Direction: higher = stronger binding
All sequences stand within: GCCTAGCAC … GTCTTGATTCGCTTGACGCTGCTG
Construct (chain): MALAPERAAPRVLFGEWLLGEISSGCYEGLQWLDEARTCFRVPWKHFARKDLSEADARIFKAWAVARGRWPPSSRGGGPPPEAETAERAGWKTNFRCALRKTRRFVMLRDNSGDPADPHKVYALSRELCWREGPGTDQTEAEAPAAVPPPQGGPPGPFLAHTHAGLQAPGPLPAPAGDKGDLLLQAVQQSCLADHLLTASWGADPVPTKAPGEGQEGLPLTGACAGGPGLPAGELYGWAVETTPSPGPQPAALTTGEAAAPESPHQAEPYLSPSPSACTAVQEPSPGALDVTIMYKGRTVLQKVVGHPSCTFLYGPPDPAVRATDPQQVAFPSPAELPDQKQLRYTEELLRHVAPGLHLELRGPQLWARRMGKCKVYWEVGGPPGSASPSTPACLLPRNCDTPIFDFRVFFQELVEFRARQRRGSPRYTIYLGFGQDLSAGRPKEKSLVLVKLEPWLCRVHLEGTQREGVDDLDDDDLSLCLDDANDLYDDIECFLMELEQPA
| Strand | log fluorescence [z-score] |
| --- | --- |
| TAAGGTTCCCTTTTCCTTTAGTGCTAG | 4.33 |
| TGTCATTTACATTTTAGTAGGTGCTAG | 0.303 |
| TTAGAATTGAGTTTCGATTAGTGCTAG | 7.97 |
| AGATTCCTCTCACCTCGGCCTGTGCTA | 0.988 |
| TTAGGCTTCCTTATCCTTTAGTGCTAG | -0.238 |
| AACTTTGGTATCTGGCATCTGTGCTAG | -0.117 |
| TCAGTTACCCCTCATCAAACTGTGCTA | 0.564 |
| GACGGTTTCCACTTTCGGGACGTGCTA | 5.21 |
| GACGGGTTCGACACTGGGGACGTGCTA | 0.0695 |
| TTTGGTATCGGGTATCGGTTAGTGCTA | 1.75 |
| TTAGATTTGGGGTATCGATTAGTGCTA | 0.304 |
| GACGGTTTCCTTTCCCTGAGGTGCTAG | 4.85 |
| TTAGGGTTCGGGACTGGGTTAGTGCTA | 0.271 |

Study 4
Target: RNA binding protein fox-1 homolog 2, RRM domain, GST-SBP tag (RBFOX2, Homo sapiens, UniProt O43251-10, residues 100-194)
Method: RNA Bind-n-Seq
Molecule type: RNA
Sample: in vitro
Tested at: 365 nM
Setting: natural RNA segment, single round, ends assumed
Relative to: no-protein control
Direction: higher = stronger binding
Construct (chain): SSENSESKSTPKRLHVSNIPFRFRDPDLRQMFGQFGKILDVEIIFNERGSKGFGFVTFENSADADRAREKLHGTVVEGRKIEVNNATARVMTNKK
| Strand | RBNS enrichment (R) |
| --- | --- |
| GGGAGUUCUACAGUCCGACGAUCGGAGCAGCUCUCUUAAGGAGAAACAAAUCUAUUUAGAGAAACAGCUGGCCCUGCAAAUGUUUACAGAAAUGAAAUUCUUCCUACUUAUAUAAGAAAUCUCACACUGAGAUUGGAAUUCUCGGGUGCCAA | 0.602 |
| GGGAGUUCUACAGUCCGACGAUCUGUGGUGGGCAGGCGCACUUUAGCCUAAGUUGGGUGCCCCAGGGCACCCCCUCCUCUCUGCUCCUUGCCAGCUUCAUUCACUCCCAGCCUCUCGCUGUCCUCACUUUGCAUGGAAUUCUCGGGUGCCAA | 2.79 |
| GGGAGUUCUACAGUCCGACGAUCAUGCUUCUCUGUUGUCACACAACACCUUUCCCUGUUUCUCUUCAGUUGUCCUCUGAUAUUUUCACAGCCUGUUAGUGGCGGCUGAUCUGUAGAGGUAUGAAAAUACAGCCUGGAAUUCUCGGGUGCCAA | 0.32 |
| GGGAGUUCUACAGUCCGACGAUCUAGGUGUCUUUGUCAUCCUUCUACUAUAAAUUGUUCUUUGCCAACCUGUACAGGUAGAUGAACCAGGCGAGAGUUUUAAUCAGCCUUUUCUUGUCCCCUUUGUAAGAAAGUGGAAUUCUCGGGUGCCAA | 0.435 |
| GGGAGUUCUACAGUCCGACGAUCCAUCCCAACCAGAGAUGGCUCACUUCGGAUCGAGGGUUGACUACAUCUCAUCAUCUCACGAAUCUGCUGUAAUAUAAGACAACAGCUUUUAAAUGUGUAUAUAACCCAUGUGGAAUUCUCGGGUGCCAA | 0.257 |
| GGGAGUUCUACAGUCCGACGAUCCAGGCCUGGCCGUGAGCGGGGGCUGCCUGCACGCUCCCCUAGCCUACUCUUGUGUUUAGGGGAUGGUGGGAACAUAUCCCAGUGCCCUUGCCUCAUAAUAGAUGUGGUGAUGGAAUUCUCGGGUGCCAA | 0.399 |
| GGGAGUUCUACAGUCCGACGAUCACUGUAGUAUUGGUGUCAUGGGAAUGUACGUUAUUUCCAAAGUCAUUUCAUUAAAGAUGAAAACUUUAUUUCUUCUGUGAUUUGUACUUACACUAAGUUUAGAUUAUCACUGGAAUUCUCGGGUGCCAA | 0.393 |
| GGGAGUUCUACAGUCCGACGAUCGCCCAGCUGCACUUGUUGUUGAUACAGCAUAAGUGAAUCAUGGGCAUUUCCCUGAGAGCAGUGGGAGAGGCCCUCUGAGUUGGAAGUUGAGCUCCACCUCCUUUCCAAGUUGGAAUUCUCGGGUGCCAA | 0.449 |
| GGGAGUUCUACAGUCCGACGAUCUGGUCUGGCUGUACUGGCAACGCGGUGCUGGGCCCAUGUCUCAUACCUUGCCCUCAGCCUAUCCCUGAACUAAACAGGACCCACUGAGUCCCAGCCUCAGCAGGCUGCUUUGGAAUUCUCGGGUGCCAA | 0.22 |

A few entries again (study 4):
| Strand | RBNS enrichment (R) |
| --- | --- |
| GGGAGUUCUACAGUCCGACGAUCAUGCUUCUCUGUUGUCACACAACACCUUUCCCUGUUUCUCUUCAGUUGUCCUCUGAUAUUUUCACAGCCUGUUAGUGGCGGCUGAUCUGUAGAGGUAUGAAAAUACAGCCUGGAAUUCUCGGGUGCCAA | 0.32 |
| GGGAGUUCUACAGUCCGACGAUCUAGGUGUCUUUGUCAUCCUUCUACUAUAAAUUGUUCUUUGCCAACCUGUACAGGUAGAUGAACCAGGCGAGAGUUUUAAUCAGCCUUUUCUUGUCCCCUUUGUAAGAAAGUGGAAUUCUCGGGUGCCAA | 0.435 |
| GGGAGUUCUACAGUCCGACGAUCCAUCCCAACCAGAGAUGGCUCACUUCGGAUCGAGGGUUGACUACAUCUCAUCAUCUCACGAAUCUGCUGUAAUAUAAGACAACAGCUUUUAAAUGUGUAUAUAACCCAUGUGGAAUUCUCGGGUGCCAA | 0.257 |
| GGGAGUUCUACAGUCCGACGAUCCAGGCCUGGCCGUGAGCGGGGGCUGCCUGCACGCUCCCCUAGCCUACUCUUGUGUUUAGGGGAUGGUGGGAACAUAUCCCAGUGCCCUUGCCUCAUAAUAGAUGUGGUGAUGGAAUUCUCGGGUGCCAA | 0.399 |
| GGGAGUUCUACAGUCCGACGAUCACUGUAGUAUUGGUGUCAUGGGAAUGUACGUUAUUUCCAAAGUCAUUUCAUUAAAGAUGAAAACUUUAUUUCUUCUGUGAUUUGUACUUACACUAAGUUUAGAUUAUCACUGGAAUUCUCGGGUGCCAA | 0.393 |
